Published values pooled from the literature.
Parts stem from different laboratories: compare values within a part only. Substitutions count along the parent as printed.

Series 1
Target: Max dimerization protein 1, bHLH-zipper, MAX partner unstated (MXD1, Homo sapiens, UniProt Q05195, residues 56-136)
Technique: protein-binding microarray
Form: double-stranded DNA, one strand shown
Medium: in vitro
Concentration: not given
Notes: k-mer, scored over probes, only values ≥0.25
Reading: higher = stronger binding
Measurement: E-score
Residues (chain): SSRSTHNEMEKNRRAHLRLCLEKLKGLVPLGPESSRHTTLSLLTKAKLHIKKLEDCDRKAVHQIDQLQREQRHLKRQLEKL
CACGCGTA: 0.427
GGGGGAAC: 0.253
AAAACATG: 0.264
ATGTGGGC: 0.318
AGTGCATG: 0.307
ATCCCCGC: 0.268
GCGTGCAA: 0.297
CTCATGGA: 0.253
CACCATGC: 0.399
CGTCCCAC: 0.325
GCATGCAC: 0.389
CATGACCC: 0.338
CCCACGCG: 0.445
CACACCTC: 0.258
GAACACGA: 0.28
GCACACGA: 0.259
AGCGCGTG: 0.36
ACCATGCC: 0.405
ACGCGTGG: 0.432
ATGCACGG: 0.262
GCATTGCA: 0.256

Series 2
Target: Sal-like protein 4, full length isoform B (SALL4, Homo sapiens, UniProt Q9UJQ4-2, residues 1-616)
Technique: universal PBM
Form: double-stranded DNA, one strand shown
Medium: in vitro
Concentration: not given
Notes: 8-mer, flanks averaged, mean of replicates
Reading: higher = stronger binding
Measurement: E-score
CTCTGGTA: 0.0306
AAACAAGA: 0.0945
AGCCCACC: -0.298
GTTTATCA: 0.193
CCATGATC: 0.00555
TAACGCTA: 0.121
ACGAGGCC: -0.277
TAACGAAA: 0.321
ACGATCAA: 0.203
TCTGTCAA: 0.101
AGATTTAT: 0.279
AACTACAC: 0.216
TAGACCCA: -0.0745
ACTCGATA: 0.113
CACGCAAC: -0.116
ACCCTGGG: -0.283
AGTGTGTG: -0.0401
GGTCCGGA: -0.249
CGTAGTAG: -0.0478
ATGCCGAA: 0.00015
GCGGAACA: -0.195
ACGTAGTA: 0.0914
AGTTCAAA: 0.0478
GGGGGTGA: -0.0311
AGGCAGGC: -0.219

Series 3
Target: CCND1, cyclin fold, Cln2 fusion (human)
Technique: yeast growth competition, sequencing
Medium: yeast
Notes: strong parent motif
Baseline: not given
Reading: higher = stronger binding
Measurement: normalised enrichment score
Starting sequence: CDKN1A docking peptide (human); SKACRRLFGPVDS
G9V: 2.57
K2C: 1.67
A3W: 0.742
R5Y: 0.515
R6E: 2.47
A3D: -0.063
G9F: 5.14
R6M: 2.67
A3C: 1.68
R5K: 0.856
L7D: 0.0773
K2Q: 2.01
F8A: -0.167
L7Y: 0.334
C4Y: -0.126
F8M: 0.0563

Series 4
Target: ATF2, bZIP domain (human)
Technique: DHFR protein complementation
Medium: yeast
Notes: single substitutions, most at no-binding floor
Baseline: wild-type JUN-FOS pair
Reading: higher = stronger binding
Measurement: binding fitness
Starting sequence: JUN, bZIP domain (human); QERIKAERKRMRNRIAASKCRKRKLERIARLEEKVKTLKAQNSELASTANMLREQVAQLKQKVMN; partner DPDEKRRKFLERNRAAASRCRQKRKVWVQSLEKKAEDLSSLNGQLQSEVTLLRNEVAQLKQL
E54L: -1.34 natural log
A57L: -1.42 natural log
T37H: -1.35 natural log
L38T: -1.53 natural log
K34V: -1.42 natural log
E33H: -1.1 natural log
I28H: -1.5 natural log
R30Q: -1.2 natural log
N42S: -1.49 natural log
A49S: -1.4 natural log
A49M: -1.39 natural log
A29H: -1.22 natural log
R30S: -1.35 natural log

Excerpt of the above (series 1):
CACGCGTA: 0.427
GGGGGAAC: 0.253
AAAACATG: 0.264
ATGTGGGC: 0.318
AGTGCATG: 0.307
ATCCCCGC: 0.268
GCGTGCAA: 0.297
CTCATGGA: 0.253
CACCATGC: 0.399
CGTCCCAC: 0.325
GCATGCAC: 0.389
